Experimental data collected from several papers.
Lines come from different studies, so protocols differ. “And” joins repeats or separate records; there may be more than shown. ± marks the error that the study gave. Where no end group is shown, it is not given here.
B1: side-chain stapled; chain CIITRPC (also: sidechain bridge or staple (positions not given here))

Molecule	tested on	assay	system	setting	scale	endpoint	result
Polymyxin B			mouse	intraperitoneal, 40 mg/kg single dose		mortality	100%
FTMSPPLQMPSKNY		circular dichroism	peptide, water with 5% DMSO	500 µM, 18 °C		random coil content	96%
glucagon		isotope dilution	human, non-diabetic	intravenous infusion, 0.05 ng/kg/min, 100 to 120 min		splanchnic extraction	25.8 ± 3.7%
nonaarginine	PorA peptide pore	peptide binding, planar bilayer single-channel recording		pH 7.4, +20 mV, trans side, 150 mM KCl		Kd	1.97 ± 0.2 µM
Ac-RRWFWR-NH2 (N-acetyl, C-amide)		RP-HPLC	peptide			retention time	16.6 min
aspterric acid			Arabidopsis thaliana Col-0 seeds	12.5 µg/mL, seed germination		root length	0.01 cm
amyloid β-peptide (1–28)		substrate, LC-MS	phosphate buffer	10 µM, 12 h, pH 7.4, 25 °C, together with: imprinted nanoparticle 1 equiv		remaining substrate	< 0.1%
polymyxin B			mice infected with Acinetobacter baumannii, caecum and colon contents			relative abundance of Escherichia-Shigella	0.00641
QAKTFLDKFNHEAEDLFYQ		circular dichroism	peptide, water/TFE 1:1 v/v	200 µM, 25 °C		beta-strand content	23.6%
TLILRLSSKLI			peptide, mouse red blood cells	concentration not given		minimal haemolytic concentration	inactive
heparin sodium			healthy Chinese adult volunteers	continuous intravenous infusion, 8 IU/kg/h, 5 days		elevated creatine phosphokinase	25%
B1		LC-MS	PBS	200 µM, up to 7 days, pH 7.4, room temperature		stability	no effect
hexaarginine	PorA peptide pore	peptide binding, planar bilayer single-channel recording		pH 7.4, +10 mV, trans side, 150 mM KCl		Kd	4.9 ± 0.5 µM
capreomycin sulfate			guinea pig, serum	insufflation, dose not given, dry powder combination single dose		half-life	45.4 min
YISPQYYGETWVTTIG		circular dichroism	peptide, water with 5% DMSO	500 µM, 18 °C		alpha-helix content	10%
HVLVMSATRR			peptide, C57BL/6J mice, male, serum	subcutaneous osmotic pump, 3 mg/kg/day peptide basis, 8 weeks		total bilirubin	0.1 mg/dL and 0.3 mg/dL
LILLSLKSTIR			peptide, mouse red blood cells	concentration not given		minimal haemolytic concentration	inactive
Tetramethylrhodamine biocytin			mouse JIMT1-BR brain metastasis model, brain macrometastases	intravenous, 10 min	relative to: uninvolved brain	increase in mean fluorescence intensity	73.2%
MEASGVNYQNMNKQTT		circular dichroism	peptide, water with 5% DMSO	500 µM, 18 °C		alpha-helix content	21%
insulin human		measured: CAD	mouse, uninfected, brain	ip, dose not given, together with: insulin	relative to: PBS-treated	mRNA fold change	0.963
microperoxidase-8			butanol-pyridine-acetic acid	2183 transfers		partition coefficient	0.2
DPDPE		RP-HPLC	HALO Peptide ES-C18 column	25 µM, formic acid/acetonitrile, 10 min gradient		retention time	4.24 min
Ac-GIGKFIHAVKKWGKTFIGEIAKS-NH2 (N-acetyl, C-amide)		RP-HPLC	peptide			retention time	20.9 min
GWTLNSAGYLLGPRRIDHLLMIKEMPIARGREEAPGA / YAVDNHRSFNDKHGFT-NH2 (C-amide)			healthy male mice	ip, 3 µM		colon length	8.6 cm and 9.1 cm and 8.5 cm and 7.8 cm

For quick reference, copied from above:
Molecule	tested on	assay	system	setting	scale	endpoint	result
YISPQYYGETWVTTIG		circular dichroism	peptide, water with 5% DMSO	500 µM, 18 °C		alpha-helix content	10%
HVLVMSATRR			peptide, C57BL/6J mice, male, serum	subcutaneous osmotic pump, 3 mg/kg/day peptide basis, 8 weeks		total bilirubin	0.1 mg/dL and 0.3 mg/dL
